# Results of several laboratories.
# Every numbered part comes from another study and shows a few of its results, in no order.
# Sequence of UniProt Q8VWQ5 (99-173, looked up): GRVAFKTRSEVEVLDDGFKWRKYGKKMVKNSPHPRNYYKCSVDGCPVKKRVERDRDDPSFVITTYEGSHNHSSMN

# Series 1 — effect on: enzyme activity; mode: inhibitor; tested at: 20 µM; setting: hit confirmation
# Target: Replicase polyprotein 1ab, main protease (rep, Severe acute respiratory syndrome coronavirus 2, UniProt P0DTD1)
Compound,inhibition [%]
NCCc1cc(O)c(O)cc1O,37
CCOc1ccc(Nc2nc(-c3c(C)nc4ccccn34)cs2)cc1,81.2
O=C(O)/C(S)=C/c1ccc(I)cc1,55.1
Oc1cc2c(c(Cl)c1O)CCNCC2c1ccccc1 (stereo not drawn),64.6

# Series 2 — cell line: HEK-293T; effect on: pseudovirus infection; method: FDA-approved drug library screen; organism: VSV pseudotyped with SARS-CoV-2 spike; tested at: 10 µM; time: 16 h; baseline: vehicle-treated
Structure (SMILES),GFP-positive cells
CCc1cccc2c3c([nH]c12)C(CC)(CC(=O)O)OCC3 (stereo not drawn),79.7%
Clc1ccc(CCC(Cn2ccnc2)Sc2c(Cl)cccc2Cl)cc1 (stereo not drawn),58.5%
C[N+](C)(C)CC(=O)O,105%

# Series 3 — method: universal PBM; form: double-stranded DNA, one strand shown; sample: in vitro; tested at: 600 nM; reading: higher = stronger binding
# Target: Sal-like protein 4, full length isoform A (SALL4, Homo sapiens, UniProt Q9UJQ4, residues 1-1053)
# Sequence of UniProt Q9UJQ4 (whole entry, looked up): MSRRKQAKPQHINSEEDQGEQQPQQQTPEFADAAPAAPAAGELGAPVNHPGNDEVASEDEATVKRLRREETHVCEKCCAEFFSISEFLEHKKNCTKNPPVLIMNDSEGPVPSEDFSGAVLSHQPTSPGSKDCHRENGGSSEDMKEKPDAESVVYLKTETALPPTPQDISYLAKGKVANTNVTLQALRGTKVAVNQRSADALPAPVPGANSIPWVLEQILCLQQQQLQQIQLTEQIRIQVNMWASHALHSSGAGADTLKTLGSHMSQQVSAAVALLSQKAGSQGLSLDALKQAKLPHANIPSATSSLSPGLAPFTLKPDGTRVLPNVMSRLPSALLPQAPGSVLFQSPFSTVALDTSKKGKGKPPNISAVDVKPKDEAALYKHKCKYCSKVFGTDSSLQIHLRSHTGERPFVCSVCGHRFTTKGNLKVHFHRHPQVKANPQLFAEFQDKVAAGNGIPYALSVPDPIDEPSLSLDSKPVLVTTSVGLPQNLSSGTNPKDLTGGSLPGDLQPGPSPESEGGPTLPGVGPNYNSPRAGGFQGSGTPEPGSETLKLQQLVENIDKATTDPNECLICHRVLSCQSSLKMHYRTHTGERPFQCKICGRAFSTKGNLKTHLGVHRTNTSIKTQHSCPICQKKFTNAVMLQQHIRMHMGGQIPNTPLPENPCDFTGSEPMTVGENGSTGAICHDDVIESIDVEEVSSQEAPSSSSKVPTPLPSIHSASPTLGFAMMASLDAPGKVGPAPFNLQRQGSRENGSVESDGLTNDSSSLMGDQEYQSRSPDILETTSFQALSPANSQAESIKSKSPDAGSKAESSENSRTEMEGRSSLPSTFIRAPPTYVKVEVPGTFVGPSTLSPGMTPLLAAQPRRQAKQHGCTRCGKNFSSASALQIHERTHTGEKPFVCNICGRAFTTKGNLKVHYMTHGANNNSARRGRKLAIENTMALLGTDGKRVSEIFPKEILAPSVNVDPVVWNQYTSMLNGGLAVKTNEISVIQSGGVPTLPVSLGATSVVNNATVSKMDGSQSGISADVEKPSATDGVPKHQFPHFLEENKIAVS
# Setting: 8-mer, flanks averaged, mean of replicates
Strand,E-score
ATCGCCCC,-0.256
AACGACCA,-0.0513
GAGCGTTA,-0.0342
GTTTACAA,0.178
CTCCAAAC,-0.0364
GCCGGATA,-0.0233
ACATCACG,0.042
CATGAGGA,0.0133

# Series 4 — mode: inhibitor; tested at: 20 µM
# Target: Replicase polyprotein 1ab, nsp13 helicase (rep, Severe acute respiratory syndrome coronavirus 2, UniProt P0DTD1)
SMILES,inhibition [%]
O=C(O)c1cc(N2N=C(C(F)(F)F)/C(=C/c3ccc(-c4ccccc4)o3)C2=O)ccc1Cl,35.6
C[C@@H]1COC(Nc2ccc3ncnc(Nc4ccc(OCc5nccs5)c(Cl)c4)c3c2)=N1,6.68
CN(C(=O)CCCOc1ccc2[nH]c(=O)ccc2c1)C1CCCCC1,-5.99
CC(C)Oc1ccc(C(=O)N[C@H](CNC(=O)CN(C)C)Cc2ccc(-c3cn4cccc([C@H](C)O)c4n3)cc2)cc1Cl,1.36
CCCCN(CCCC)CC(O)c1cc(Cl)cc2c1-c1ccc(Cl)cc1/C2=C/c1ccc(Cl)cc1 (stereo not drawn),4.44
CCn1nc(C(=O)O)c(=O)c2cc3c(cc21)OCO3,2.11
Cc1cc(OCC(=O)O)cc(C)c1Cc1ccc(O)c(C(C)C)c1,3.76
O=C(O)[C@H](O)[C@H](O)[C@@H](O)[C@H](O)[C@H](O)CO,-4.84
O=C1CC[C@@H](C(=O)N2CSC[C@H]2C(=O)O)N1,-4.24
O=C1NC(c2cccc([N+](=O)[O-])c2)=CCN1c1ccccc1O,-0.2
CCN(CC)CCNc1ccc(CO)c2sc3ccccc3c(=O)c12,21.1
COc1ccc(O)c(C(C)(C)C)c1,2.9
CCN(CC)CCOc1ccc(Nc2ncc3cc(-c4c(Cl)cccc4Cl)c(=O)n(C)c3n2)cc1,11.7
CC(C(=O)O)c1ccc(C(=O)c2ccccc2)s1 (stereo not drawn),5.42
CC(C)(C)c1cc(/C=C(\C#N)C(N)=S)cc(C(C)(C)C)c1O,0.44
CC(C)(C)c1ccc(CN(Cc2cccc(OCC(=O)O)c2)S(=O)(=O)c2cccnc2)cc1,5.92
Cn1nc(C(C)(C)C)cc1C(=O)N[C@@H](Cc1cccc(Cl)c1)C(=O)NCC#N,2.21
Nc1nc(N)c2nc(-c3ccccc3)c(N)nc2n1,-0.6
Nc1ncc(Cc2ccc(Br)cc2)s1,2.64
CCOC(=O)c1c(/C(C#N)=C\N)c2ccc(Cl)c(Cl)c2n1C,5.51
Nc1ncnc2c1ncn2[C@@H]1O[C@H](C[C@@H](N)CC[C@H](N)C(=O)O)[C@@H](O)[C@H]1O,12.9
COc1cc2ncnc(Nc3ccc(F)c(Cl)c3)c2cc1NC(=O)/C=C/CN1CCCCC1,3.23
N=C(N)NC(=O)c1cnn(-c2cccc3ncccc23)c1C1CC1,2.53
COc1cccc2c1C(=O)c1c(O)c3c(c(O)c1C2=O)C[C@@](O)(C(=O)CO)C[C@@H]3O[C@H]1C[C@H](N)[C@H](O)[C@H](C)O1,93
CN1[C@@H]2CC[C@H]1C[C@@H](OC(=O)[C@H](CO)c1ccccc1)C2,-0.15

# Series 5 — method: protein-binding microarray; form: double-stranded DNA, one strand shown; sample: in vitro; tested at: 250 nM; setting: 60-bp whole probe; added: salmon DNA 0.4 mg/ml; baseline: random background probes; reading: higher = stronger binding; shared flanks, not repeated: GCCTAGCAC … GTCTTGATTCGCTTGACGCTGCTG
# Target: Interferon regulatory factor 7, full length, phosphomimetic (IRF7, Homo sapiens, UniProt Q92985, residues 1-503, S101K/S471D/S472D/S475D/S476D/S477D/S483D/S484D/S487D)
# Target sequence (chain): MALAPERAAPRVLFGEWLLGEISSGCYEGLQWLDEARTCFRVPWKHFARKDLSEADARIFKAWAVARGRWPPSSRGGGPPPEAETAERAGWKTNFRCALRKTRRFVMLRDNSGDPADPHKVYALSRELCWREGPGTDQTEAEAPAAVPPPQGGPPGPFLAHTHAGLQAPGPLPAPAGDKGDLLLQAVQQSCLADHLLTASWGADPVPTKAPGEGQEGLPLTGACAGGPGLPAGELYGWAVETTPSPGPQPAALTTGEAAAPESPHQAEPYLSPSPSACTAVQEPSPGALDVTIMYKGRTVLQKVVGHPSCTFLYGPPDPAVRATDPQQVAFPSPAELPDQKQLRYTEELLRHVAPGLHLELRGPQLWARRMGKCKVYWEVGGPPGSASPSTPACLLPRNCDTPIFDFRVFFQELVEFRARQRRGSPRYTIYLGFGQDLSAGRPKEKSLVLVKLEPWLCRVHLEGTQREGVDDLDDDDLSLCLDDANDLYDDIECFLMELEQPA
Strand,log fluorescence
GACGATATCAGTATCTAGACGTGCTAG,-0.218 z-score
TCAGGTCTCCTTTTCCTTTAGTGCTAG,1.95 z-score
TCAATGCTGGCTTTTATACTGTGCTAG,-0.837 z-score
TTAGAAGTGAGTTTCGATTAGTGCTAG,7.61 z-score
GACGAACTGGGGACTGTAGACGTGCTA,-0.604 z-score
TTAGATTTGAGACTGGATTAGTGCTAG,0.0323 z-score
GATTTTTTAGCTTGCAAAAAGTGCTAG,0.228 z-score
TTAGATTTCCGACTGGATTAGTGCTAG,0.138 z-score

# Further values, each from its own experiment — method: DNA-protein interaction ELISA; form: double-stranded DNA, one strand shown; sample: in vitro, bacterial lysate; tested at: not given; setting: whole dsDNA probe, crude lysate protein; baseline: highest signal in screen; reading: higher = stronger binding
# WRKY33 N-terminal DNA-binding domain: Probable WRKY transcription factor 33, N-terminal DNA-binding domain (WRKY33, Arabidopsis thaliana, UniProt Q8S8P5, residues 169-264)
# Sequence of UniProt Q8S8P5 (169-264, looked up): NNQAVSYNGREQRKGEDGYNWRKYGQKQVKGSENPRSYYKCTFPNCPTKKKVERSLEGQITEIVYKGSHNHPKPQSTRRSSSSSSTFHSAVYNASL
Strand,target,relative absorbance
AAAAAAATCCGATCGATGCATATATAAAA,WRKY33 N-terminal DNA-binding domain,20.8 % of maximum
AAAAAAGACACTCTAATTCCGTAGGCAAAA,WRKY33 N-terminal DNA-binding domain,23.1 % of maximum
AAAAAATTCCGCGTGTATGTGTACGTAAAA,"Probable WRKY transcription factor 50, DNA-binding domain (WRKY50, Arabidopsis thaliana, UniProt Q8VWQ5, residues 99-173)",72.7 % of maximum

# Excerpt of the above (series 4):
SMILES,inhibition [%]
Cn1nc(C(C)(C)C)cc1C(=O)N[C@@H](Cc1cccc(Cl)c1)C(=O)NCC#N,2.21
Nc1nc(N)c2nc(-c3ccccc3)c(N)nc2n1,-0.6
Nc1ncc(Cc2ccc(Br)cc2)s1,2.64
CCOC(=O)c1c(/C(C#N)=C\N)c2ccc(Cl)c(Cl)c2n1C,5.51
Nc1ncnc2c1ncn2[C@@H]1O[C@H](C[C@@H](N)CC[C@H](N)C(=O)O)[C@@H](O)[C@H]1O,12.9
